Published values gathered from unrelated publications.
Each line is one published result; not all experiments were run side by side. Several values in a cell are separate wells, animals, samples, runs or records.
Target: RAC-beta serine/threonine-protein kinase (AKT2, Homo sapiens, UniProt P31751)
UniProt P31751, sequence (whole entry, looked up): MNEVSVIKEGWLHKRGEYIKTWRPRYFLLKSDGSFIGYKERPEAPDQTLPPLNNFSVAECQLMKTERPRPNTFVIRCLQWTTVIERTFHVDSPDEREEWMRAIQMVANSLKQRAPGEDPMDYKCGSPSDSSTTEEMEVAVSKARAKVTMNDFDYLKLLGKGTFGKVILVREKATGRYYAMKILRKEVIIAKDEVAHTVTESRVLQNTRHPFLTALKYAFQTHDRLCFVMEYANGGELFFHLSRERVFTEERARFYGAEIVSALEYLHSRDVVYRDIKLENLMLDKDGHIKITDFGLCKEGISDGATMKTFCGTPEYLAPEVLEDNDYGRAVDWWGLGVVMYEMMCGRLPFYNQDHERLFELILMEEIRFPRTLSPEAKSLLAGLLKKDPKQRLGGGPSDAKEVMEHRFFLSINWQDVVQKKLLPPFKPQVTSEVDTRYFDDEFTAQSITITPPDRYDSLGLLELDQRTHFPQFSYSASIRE

SMILES | assay | conditions | scale | measurement | result
C[C@H](NCc1ccc(-c2ccc(C(F)(F)F)cc2)cc1)C(N)=O | cell-free assay, competition with immobilised ligand | 1 µM | – | inhibition | 0%
O=C1NC(=O)c2c1c1cc(F)c[n+]3c1c1c2c2cc(O)ccc2[n]1[Ru-4]312([N]=C=S)[S+]3CC[S+]1CC[S+]2CC3 (centres unmarked) | enzyme activity | 100 nM, human enzyme, added: 10 µM ATP | baseline: untreated | remaining activity | 57%
CCOC(=O)[C@@H]1Cc2c(cc([N+](=O)[O-])cc2[N+](=O)[O-])[C@H](O)[C@]12C(=O)Nc1ccc(Br)cc12 | binding, competition with immobilised ligand | 0.1 µM | – | remaining binding | 51%
CC(C)[C@H]1NC(=O)C[C@H]2/C=C/CCSSC[C@@H](NC1=O)C(=O)N[C@H](Cc1cccc3ccccc13)C(=O)NCC(=O)O2 | enzyme activity, inhibitor | 10 µM | – | inhibition | -2.4%
O=C(O)c1ccccc1/C=N/Nc1nc(-c2ccccc2Cl)cs1 | kinase activity | 1 µM | – | inhibition | 1.03%
Nc1ccc(/C=C/C(=O)N2CCc3c(oc4c(-c5ccc(F)cc5)cc(-c5ccc(C(=O)N6CCC(F)(F)CC6)cn5)cc34)C2)cn1 | binding, competition with immobilised ligand | 1 µM | – | remaining binding | 98%
CS(C)(=O)=Nc1ccc(-c2ccc(-c3nc4cc(O[C@@H]5CO[C@H]6[C@@H]5OC[C@H]6O)[nH]c4cc3F)cc2)cc1 | enzyme activity, inhibitor | 10 µM | – | inhibition | -24%
[CH3][Ti+2][O]C(=O)c1ccc([S][Au][PH](c2ccccc2)(c2ccccc2)c2ccccc2)cc1.c1cc[cH-]c1.c1cc[cH-]c1 | kinase activity, HotSpot radiometric | 1 µM, added: ATP 10 µM | baseline: vehicle | remaining activity | 82.7% and 82.8%

Excerpt of the above:
SMILES | assay | conditions | scale | measurement | result
CS(C)(=O)=Nc1ccc(-c2ccc(-c3nc4cc(O[C@@H]5CO[C@H]6[C@@H]5OC[C@H]6O)[nH]c4cc3F)cc2)cc1 | enzyme activity, inhibitor | 10 µM | – | inhibition | -24%
